Measurements collected from several papers.
Lines come from different studies, so protocols differ. Several values in a cell are separate wells, animals, samples, runs or records. Numbers after ± are the reported error.
WD repeat-containing protein 91 WD40 domain, residues 392–747: WD repeat-containing protein 91, WD40 domain, residues 392–747 (Homo sapiens, UniProt A4D1P6)
UniProt A4D1P6, sequence (whole entry, looked up): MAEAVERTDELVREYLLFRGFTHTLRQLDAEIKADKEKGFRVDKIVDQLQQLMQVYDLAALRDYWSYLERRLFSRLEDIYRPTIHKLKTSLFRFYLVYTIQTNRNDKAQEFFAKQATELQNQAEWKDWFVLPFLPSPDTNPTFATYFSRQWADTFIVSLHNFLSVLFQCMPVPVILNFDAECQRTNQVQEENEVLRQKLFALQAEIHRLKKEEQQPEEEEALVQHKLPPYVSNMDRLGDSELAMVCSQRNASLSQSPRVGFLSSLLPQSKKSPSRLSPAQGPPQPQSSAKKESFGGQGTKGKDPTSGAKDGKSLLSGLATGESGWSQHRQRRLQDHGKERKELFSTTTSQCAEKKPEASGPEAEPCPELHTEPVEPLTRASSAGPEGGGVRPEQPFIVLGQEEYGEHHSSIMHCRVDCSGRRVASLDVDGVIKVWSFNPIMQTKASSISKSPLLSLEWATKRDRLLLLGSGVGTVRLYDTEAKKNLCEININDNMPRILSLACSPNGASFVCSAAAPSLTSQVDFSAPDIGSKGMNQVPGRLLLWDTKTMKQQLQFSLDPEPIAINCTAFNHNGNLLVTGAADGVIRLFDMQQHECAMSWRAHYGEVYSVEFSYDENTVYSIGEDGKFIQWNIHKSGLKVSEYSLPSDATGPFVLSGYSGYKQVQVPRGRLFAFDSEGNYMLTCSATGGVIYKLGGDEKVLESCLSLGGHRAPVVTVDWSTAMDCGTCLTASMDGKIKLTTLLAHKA
ESR1: Estrogen receptor (ESR1, Homo sapiens, UniProt P03372)
UniProt P03372, sequence (whole entry, looked up): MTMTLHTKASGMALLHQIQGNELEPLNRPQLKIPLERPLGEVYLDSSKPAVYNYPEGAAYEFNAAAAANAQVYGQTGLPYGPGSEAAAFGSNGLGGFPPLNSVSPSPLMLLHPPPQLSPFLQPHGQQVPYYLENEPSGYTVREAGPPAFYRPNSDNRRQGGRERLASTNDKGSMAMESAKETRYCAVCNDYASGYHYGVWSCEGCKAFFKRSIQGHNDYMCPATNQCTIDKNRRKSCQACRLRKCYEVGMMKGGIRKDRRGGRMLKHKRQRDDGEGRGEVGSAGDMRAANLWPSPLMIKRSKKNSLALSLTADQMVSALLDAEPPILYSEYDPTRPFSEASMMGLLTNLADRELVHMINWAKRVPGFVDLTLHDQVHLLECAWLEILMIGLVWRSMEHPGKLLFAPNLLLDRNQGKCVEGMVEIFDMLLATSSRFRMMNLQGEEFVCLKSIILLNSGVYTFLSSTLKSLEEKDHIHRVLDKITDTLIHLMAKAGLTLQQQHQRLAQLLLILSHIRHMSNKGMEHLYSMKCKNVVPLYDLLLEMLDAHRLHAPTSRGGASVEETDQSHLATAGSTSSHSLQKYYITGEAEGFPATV
Genome polyprotein NS3 helicase domain: Genome polyprotein, NS3 helicase domain (Hepatitis C virus genotype 1b, UniProt Q9WMX2)
Glutamate receptor 2: Glutamate receptor 2 (Homo sapiens, UniProt P42262)
CAMK2D: Calcium/calmodulin-dependent protein kinase type II subunit delta (CAMK2D, Homo sapiens, UniProt Q13557)
T1: RNA aptamer; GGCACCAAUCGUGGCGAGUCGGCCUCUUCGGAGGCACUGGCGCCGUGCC
UniProt O76090, sequence (whole entry, unmodified, looked up): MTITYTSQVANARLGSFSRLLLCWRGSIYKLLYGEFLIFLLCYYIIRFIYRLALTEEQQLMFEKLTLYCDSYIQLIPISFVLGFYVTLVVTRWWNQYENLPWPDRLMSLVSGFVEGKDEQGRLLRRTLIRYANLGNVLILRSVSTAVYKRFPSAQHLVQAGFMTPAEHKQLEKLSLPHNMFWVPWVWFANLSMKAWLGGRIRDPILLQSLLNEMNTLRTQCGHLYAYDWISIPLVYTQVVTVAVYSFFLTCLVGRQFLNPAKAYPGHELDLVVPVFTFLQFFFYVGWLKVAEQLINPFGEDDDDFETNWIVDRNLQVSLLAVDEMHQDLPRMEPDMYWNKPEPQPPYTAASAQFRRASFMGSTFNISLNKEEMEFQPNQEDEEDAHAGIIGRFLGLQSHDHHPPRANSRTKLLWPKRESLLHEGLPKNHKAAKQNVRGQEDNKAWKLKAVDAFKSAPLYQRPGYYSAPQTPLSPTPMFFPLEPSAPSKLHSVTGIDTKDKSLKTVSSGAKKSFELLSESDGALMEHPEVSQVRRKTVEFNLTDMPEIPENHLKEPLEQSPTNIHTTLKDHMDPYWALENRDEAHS

Cc1cccc(N2CC(C(=O)O)CC2=O)c1 (stereo not drawn)
fold enrichment (SPRY domain-containing SOCS box protein 2, SPRY domain (Homo sapiens, UniProt Q99619); binding, affinity selection mass spectrometry; baseline: other proteins in batch): 1.42

CC[C@H](C)[C@H](NC(=O)[C@H](CCCCN)NC(=O)CNC(=O)[C@@H](NC(=O)[C@@H](NC(=O)[C@H](CCSC)NC(=O)[C@H](Cc1c[nH]cn1)NC(=O)CN)[C@@H](C)O)C(C)C)C(=O)N[C@@H](Cc1ccc(O)cc1)C(=O)N[C@@H](C)C(=O)N[C@@H](C)C(=O)N[C@@H](CCSC)C(=O)N[C@@H](CCSC)C(=O)N[C@H](C(=O)N[C@@H](CCSC)C(=O)N[C@@H](CCC(=O)O)C(=O)N[C@@H](Cc1ccc(O)cc1)C(=O)N[C@@H](C)C(=O)N[C@@H](CCCNC(=N)N)C(=O)N[C@@H](CCC(N)=O)C(=O)N[C@@H](CO)C(=O)N[C@@H](CCCCN)C(=O)N[C@@H](C)C(=O)N[C@@H](CCCCN)C(=O)N[C@@H](CCCCN)C(=O)N[C@@H](CC(C)C)C(=O)N[C@@H](CCC(N)=O)C(=O)N[C@@H](C)C(=O)N[C@@H](CCSC)C(=O)N[C@@H](CCCNC(=N)N)C(=O)O)[C@@H](C)CC
stoichiometry (Calmodulin-1, Ca2+-bound C-lobe (CALM1, Homo sapiens, UniProt P0DP23); binding, isothermal titration calorimetry; pH 7.4, 15 °C, Ca2+-bound C-lobe, together with: CaV2.1 IQ peptide): 0.83 ± 0.14

COC(=O)CCc1c(C)nn(-c2ccc(C(=O)N3CCC(C#N)CC3)cc2)c1C
binding (WD repeat-containing protein 91 WD40 domain, residues 392–747; SPR; 45 µM): -15% and 1%

COc1ccc(-c2oc3c(CC=C(C)C)c(O[C@@H]4O[C@H](CO)[C@@H](O)[C@H](O)[C@H]4O)cc(O)c3c(=O)c2O[C@@H]2O[C@@H](C)[C@H](O)[C@@H](O)[C@H]2O)cc1
selectivity ratio (ESR1; array formation; PRL-HeLa; baseline: EC50 ERβ over EC50 ERα): 2.05

COc1ccc([C@H]2N(c3ccc(Cl)c(Cl)c3)C(=O)[C@@H]3CCCN32)c(OC)c1OC (racemic)
kinase activity (Death-associated protein kinase 1 (DAPK1, Homo sapiens, UniProt P53355); enzyme activity, inhibitor, ADP-Glo; 100 µM): no effect

Nc1nc(Cl)nc2c1ncn2[C@@H]1O[C@H](CO)[C@@H](O)[C@H]1O
inhibition (Genome polyprotein NS3 helicase domain; DNA binding, inhibitor; hepatitis C virus; 100 µM, together with: Cy5-dT15 DNA): 0%

CC12CC3CC(C)(C1)CC(N)(C3)C2
potentiation (Glutamate receptor 2; ion current, positive allosteric modulator, SyncroPatch patch clamp; HEK293; 3 µM): 85%

CN(CCO)c1ccc(/C=C(\C#N)c2ccc(C#N)cc2)cc1
Kd (T1, RNA aptamer; fluorescence titration, Hill fit; apparent): 37.5 nM

O=C(COP(=O)(O)O)[C@@H](O)[C@H](O)[C@H](O)COP(=O)(O)O
thermal stability ratio (SEC23-interacting protein (Homo sapiens, UniProt Q9Y6Y8); thermal proteome profiling, item: SEC23IP; HepG2 cell lysate; concentration not given, 57 over 37 °C; baseline: compound over control): 0.583 and 0.102 and 0.636

Cc1ccc([N+](=O)[O-])cc1S(=O)(=O)N(C)C
inhibition (Genome polyprotein NS3 helicase domain; DNA binding, inhibitor; hepatitis C virus; 100 µM, together with: Cy5-dT15 DNA): 0%

CCC1(O)CCCN(C(=O)c2ccc(-c3ccc(F)c(NC(=O)CCl)c3)cc2)C1 (stereo not drawn)
unmodified protein (DNA dC->dU-editing enzyme APOBEC-3B, C-terminal domain (Homo sapiens, UniProt Q9UH17); covalent adduct, intact protein MS; 3 h, 10-fold excess, 250 µM): 22% and 9%

COc1ccc2c(c1)c(CC(=O)O)c(C)n2Cc1ccc(Cl)cc1
inhibition (Genome polyprotein NS3 helicase domain; DNA binding, inhibitor; hepatitis C virus; 100 µM, together with: Cy5-dT15 DNA): 0%

Oc1cc(O)c2c(c1)O[C@H](c1cc(O)c(O)c(O)c1)[C@@H](O)C2
selectivity ratio (ESR1; array formation; PRL-HeLa; baseline: EC50 ERβ over EC50 ERα): 1.25

CN1C(=O)COc2c(C(=O)NC3CN4CCC3CC4)cc(Cl)cc21 (stereo not drawn)
IC50/Cmax ratio (Acetylcholinesterase (ACHE, Homo sapiens, UniProt P22303); baseline: IC50 over human plasma Cmax): < 10

CNC(=O)c1ccc(C(=O)Nc2ccc3c(=O)[nH]c(-c4ccc(C(C)(C)O)cc4)nc3c2)cc1
selectivity ratio (Poly [ADP-ribose] polymerase tankyrase-2 (TNKS2, Homo sapiens, UniProt Q9H2K2); PARylation, inhibitor, biochemical PARylation; baseline: TNKS1 IC50 over TNKS2 IC50): 26.9

COc1ccc(-c2cc(=O)c3c(O)cc(O[C@@H]4O[C@H](CO[C@@H]5O[C@@H](C)[C@H](O)[C@@H](O)[C@H]5O)[C@@H](O)[C@H](O)[C@H]4O)cc3o2)cc1
selectivity ratio (ESR1; array formation; PRL-HeLa; baseline: EC50 ERβ over EC50 ERα): 0.582

CC(Oc1ccccc1)C(=O)NCc1ccccn1 (stereo not drawn)
fold enrichment (WD repeat-containing protein 91 (Homo sapiens, UniProt A4D1P6); binding, affinity selection mass spectrometry; baseline: other proteins in batch): 0.955

N#CC1CCN(C(=O)c2ccc(SCc3cn4ccccc4n3)cc2)CC1
SPR response (WD repeat-containing protein 91 WD40 domain, residues 392–747; binding, SPR single-concentration screen; 45 µM): -6.4 RU and -0.9 RU

CCCN1C[C@H](CSC)C[C@@H]2c3cccc4[nH]cc(c34)C[C@H]21
potentiation (Glutamate receptor 2; ion current, positive allosteric modulator, SyncroPatch patch clamp; HEK293; 10 µM): 96%

N=C(N)NC(=O)c1nc(Cl)c(N)nc1N
inhibition (Genome polyprotein NS3 helicase domain; DNA binding, inhibitor; hepatitis C virus; 100 µM, together with: Cy5-dT15 DNA): 1%

CC(C)[C@H](NC(=O)c1cc(-c2cnn3cc(-c4ccc(OCCN5CCCCC5)cc4)cnc23)cs1)C(F)(F)F
relative inhibition (Testis-specific serine/threonine-protein kinase 2 (TSSK2, Homo sapiens, UniProt Q96PF2); radiometric kinase; 15 nM; baseline: TSSK2 over ULK1): 0.0114

Nc1nc2nccnc2c(=O)[nH]1
product formation (N-alpha-acetyltransferase 80 (NAA80, Homo sapiens, UniProt Q93015); substrate, DTNB; 2 mM, 30 min, 37 °C, together with: acetyl-CoA 500 µM): 0.18 µM

CC(C)(C)OCCC(=O)NC1CCN(c2ncnc3c2nc(-c2ccccc2Cl)n3-c2ccc(Cl)cc2)CC1
Ke (Cannabinoid receptor 1 (CNR1, Homo sapiens, UniProt P21554); antagonist, FLIPR calcium mobilisation; CHO-K1 expressing CNR1 and Gαq16; together with: CP55940): 1.7 nM

N#Cc1ccc2[nH]cc(CCCCN3CCN(c4ccc5oc(C(N)=O)cc5c4)CC3)c2c1
Hill coefficient (Sodium-dependent serotonin transporter (SLC6A4, Homo sapiens, UniProt P31645, E494Q); [3H]5-HT uptake, inhibitor; COS-7): 1.27 ± 0.25

O=c1nc(SCc2cc(F)cc(C(F)(F)F)c2)nc(SCc2ccc3sccc3c2)[nH]1
ATP hydrolysis rate (DNA topoisomerase 2-alpha (TOP2A, Homo sapiens, UniProt P11388); ATPase activity; 1.95 µM, together with: ATP 0.025 mM): 0.363 µM/min and 0.218 µM/min

CC[C@@H]1[C@H](F)C(=O)N[C@@H]1COc1nccc2cc(C(N)=O)c(OC)cc12
inhibition (CAMK2D; ATP-site probe binding, ActivX profiling; THP-1 cell lysate; 0.01 mM, Lys1 site): 14.2%

COc1cc(NC(=O)c2cscn2)ccc1/N=N/c1ccccc1Cl
activation (Metabotropic glutamate receptor 5 (GRM5, Homo sapiens, UniProt P41594); positive allosteric modulator, IP accumulation; HEK293; 30 µM, in the dark, together with: low-dose orthosteric agonist): -11.5%

Nc1ccc(C(=O)O)cc1
current density (BEST1, with wild-type BEST1 (Homo sapiens, UniProt O76090, Q293K); ion current, whole-cell patch clamp; HEK293 co-expressing mutant and wild-type; concentration not given, voltage -100 mV): -12.2 pA/pF and -14.3 pA/pF and -16.3 pA/pF and -12.1 pA/pF and -3.57 pA/pF and -41.5 pA/pF

N#CC1CCN(C(=O)c2ccc(S(=O)(=O)N3CCCc4ccccc43)cc2)CC1
SPR response (WD repeat-containing protein 91 WD40 domain, residues 392–747; binding, SPR single-concentration screen; 45 µM): 0.4 RU and 3.4 RU

CC(=O)N[C@H](C(=O)N[C@@H](CC(N)=O)C(=O)N[C@@H](CCCCN)C(=O)N1CCC[C@H]1C(=O)N[C@@H](CC(C)C)C(=O)N1CCC[C@H]1C(=O)N1CCC[C@H]1C(=O)N[C@@H](CC(C)C)C(=O)N1CCC[C@H]1C(=O)N[C@H](C(=O)N[C@@H](C)C(N)=O)C(C)C)C(C)C
-TΔS (Tyrosine-protein kinase Fyn, SH3 domain (FYN, Homo sapiens, UniProt P06241); binding, isothermal titration calorimetry; 50 mM sodium phosphate, 100 mM NaCl; pH 7.0, 25 °C): 2.15 ± 0.239 kcal/mol

Cc1ccc(CN(C(=O)c2cc3cccn3cn2)C2CCc3ccccc32)cc1 (stereo not drawn)
binding (WD repeat-containing protein 91 WD40 domain, residues 392–747; SPR; 45 µM): 43% and 95%

O=C(O)[C@@H](O)[C@@H](O)[C@H](O)[C@@H](O)CO
delta Tm (Uncharacterized protein (Chromohalobacter israelensis, UniProt Q1QT90); binder, thermal shift): 2.1 °C

COc1cc(-c2cncc3c2CN(C)Cc2cc(N4CCNCC4)ccc2-3)cc(OC)c1OC
remaining activity (CAMK2D; kinase activity; 1 µM, human enzyme, together with: ATP 10 µM; baseline: DMSO control): 84%

Some of these lines once more:
CC[C@@H]1[C@H](F)C(=O)N[C@@H]1COc1nccc2cc(C(N)=O)c(OC)cc12
inhibition (CAMK2D; ATP-site probe binding, ActivX profiling; THP-1 cell lysate; 0.01 mM, Lys1 site): 14.2%

COc1cc(NC(=O)c2cscn2)ccc1/N=N/c1ccccc1Cl
activation (Metabotropic glutamate receptor 5 (GRM5, Homo sapiens, UniProt P41594); positive allosteric modulator, IP accumulation; HEK293; 30 µM, in the dark, together with: low-dose orthosteric agonist): -11.5%

Nc1ccc(C(=O)O)cc1
current density (BEST1, with wild-type BEST1 (Homo sapiens, UniProt O76090, Q293K); ion current, whole-cell patch clamp; HEK293 co-expressing mutant and wild-type; concentration not given, voltage -100 mV): -12.2 pA/pF and -14.3 pA/pF and -16.3 pA/pF and -12.1 pA/pF and -3.57 pA/pF and -41.5 pA/pF

N#CC1CCN(C(=O)c2ccc(S(=O)(=O)N3CCCc4ccccc43)cc2)CC1
SPR response (WD repeat-containing protein 91 WD40 domain, residues 392–747; binding, SPR single-concentration screen; 45 µM): 0.4 RU and 3.4 RU
